# Published values collected from several papers.
# Protocols differ between the studies behind these lines. ± marks the error that the study gave.
# OPRK1: Kappa-type opioid receptor (OPRK1, Homo sapiens, UniProt P41145)
# UniProt P41145, sequence (whole entry, looked up): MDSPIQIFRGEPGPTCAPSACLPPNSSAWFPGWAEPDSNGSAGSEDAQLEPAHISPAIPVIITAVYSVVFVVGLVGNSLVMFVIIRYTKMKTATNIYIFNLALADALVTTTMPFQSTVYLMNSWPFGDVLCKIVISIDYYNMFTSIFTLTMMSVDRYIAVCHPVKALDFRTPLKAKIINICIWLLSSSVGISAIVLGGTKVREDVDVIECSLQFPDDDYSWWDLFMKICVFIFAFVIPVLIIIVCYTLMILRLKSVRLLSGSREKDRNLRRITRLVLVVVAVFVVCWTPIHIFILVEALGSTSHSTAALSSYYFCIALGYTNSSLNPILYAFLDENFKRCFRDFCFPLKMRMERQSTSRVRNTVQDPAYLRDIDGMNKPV
# UniProt P33533, sequence (whole entry, looked up): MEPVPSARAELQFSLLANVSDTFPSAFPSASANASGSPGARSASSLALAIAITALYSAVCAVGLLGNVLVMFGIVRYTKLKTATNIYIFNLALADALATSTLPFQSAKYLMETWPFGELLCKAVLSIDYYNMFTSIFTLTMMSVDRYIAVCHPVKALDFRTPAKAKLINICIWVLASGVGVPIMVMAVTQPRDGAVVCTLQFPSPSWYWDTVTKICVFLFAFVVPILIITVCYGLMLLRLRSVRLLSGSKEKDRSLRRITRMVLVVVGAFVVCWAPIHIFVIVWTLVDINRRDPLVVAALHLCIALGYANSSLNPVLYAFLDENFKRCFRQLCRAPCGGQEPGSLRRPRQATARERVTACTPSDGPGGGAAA
# UniProt Q96NY8, sequence (whole entry, looked up): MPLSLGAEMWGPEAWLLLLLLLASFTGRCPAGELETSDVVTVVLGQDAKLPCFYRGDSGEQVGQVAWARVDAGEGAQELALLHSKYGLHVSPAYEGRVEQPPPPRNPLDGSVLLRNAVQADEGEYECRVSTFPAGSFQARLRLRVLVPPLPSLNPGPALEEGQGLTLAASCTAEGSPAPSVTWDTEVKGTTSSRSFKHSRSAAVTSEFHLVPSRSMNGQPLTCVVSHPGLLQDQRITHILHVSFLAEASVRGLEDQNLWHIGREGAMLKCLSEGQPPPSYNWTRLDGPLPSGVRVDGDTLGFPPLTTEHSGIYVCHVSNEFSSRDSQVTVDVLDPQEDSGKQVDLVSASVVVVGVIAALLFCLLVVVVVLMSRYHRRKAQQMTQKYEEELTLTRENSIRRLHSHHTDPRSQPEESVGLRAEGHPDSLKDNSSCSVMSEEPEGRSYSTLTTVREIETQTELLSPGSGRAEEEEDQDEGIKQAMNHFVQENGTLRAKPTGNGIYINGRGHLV
# UniProt P04618, sequence (whole entry, looked up): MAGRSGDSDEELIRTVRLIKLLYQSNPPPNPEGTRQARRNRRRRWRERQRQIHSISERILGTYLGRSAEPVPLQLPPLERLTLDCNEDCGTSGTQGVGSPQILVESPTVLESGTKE
# UniProt P41143, sequence (whole entry, looked up): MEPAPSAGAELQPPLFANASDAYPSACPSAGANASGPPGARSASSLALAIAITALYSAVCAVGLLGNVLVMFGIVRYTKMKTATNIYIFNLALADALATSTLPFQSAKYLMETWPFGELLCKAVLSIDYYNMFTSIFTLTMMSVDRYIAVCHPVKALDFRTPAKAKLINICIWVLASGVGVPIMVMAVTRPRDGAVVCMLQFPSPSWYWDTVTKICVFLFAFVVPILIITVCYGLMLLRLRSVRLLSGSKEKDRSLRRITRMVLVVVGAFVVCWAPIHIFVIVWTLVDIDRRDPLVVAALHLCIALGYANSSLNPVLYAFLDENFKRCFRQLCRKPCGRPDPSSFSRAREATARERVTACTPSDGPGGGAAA
# UniProt P35372, sequence (whole entry, looked up): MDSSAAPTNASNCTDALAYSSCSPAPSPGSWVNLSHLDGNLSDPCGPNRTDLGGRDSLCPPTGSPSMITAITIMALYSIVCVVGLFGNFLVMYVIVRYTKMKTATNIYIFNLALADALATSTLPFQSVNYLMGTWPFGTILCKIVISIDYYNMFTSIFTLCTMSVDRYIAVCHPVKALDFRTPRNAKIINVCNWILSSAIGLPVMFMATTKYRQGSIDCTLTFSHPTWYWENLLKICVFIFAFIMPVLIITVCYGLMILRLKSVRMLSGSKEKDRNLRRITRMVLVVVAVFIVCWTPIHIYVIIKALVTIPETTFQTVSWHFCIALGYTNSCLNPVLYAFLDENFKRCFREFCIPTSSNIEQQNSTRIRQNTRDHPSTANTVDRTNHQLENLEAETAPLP
# UniProt P47871, sequence (whole entry, looked up): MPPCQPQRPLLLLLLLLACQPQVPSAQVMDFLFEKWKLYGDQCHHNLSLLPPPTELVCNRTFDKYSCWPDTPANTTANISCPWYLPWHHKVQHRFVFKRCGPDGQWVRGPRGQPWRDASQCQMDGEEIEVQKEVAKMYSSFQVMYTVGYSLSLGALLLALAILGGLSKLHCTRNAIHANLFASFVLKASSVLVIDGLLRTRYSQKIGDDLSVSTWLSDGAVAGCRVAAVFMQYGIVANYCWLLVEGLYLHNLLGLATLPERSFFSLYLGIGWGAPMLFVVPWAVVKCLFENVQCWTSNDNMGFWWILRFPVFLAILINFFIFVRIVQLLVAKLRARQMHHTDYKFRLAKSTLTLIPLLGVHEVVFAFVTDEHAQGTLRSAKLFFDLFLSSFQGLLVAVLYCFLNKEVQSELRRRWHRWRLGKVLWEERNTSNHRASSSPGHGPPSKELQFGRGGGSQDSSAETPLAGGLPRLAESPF
SMILES,target,test,test system,conditions,endpoint,value
CCCCCCCCCCCCCCCC(=O)N[C@@H](CCC(=O)NCCCC[C@H](NC(=O)[C@H](CC(=O)O)NC(=O)[C@H](CO)NC(=O)[C@@H](NC(=O)[C@H](Cc1ccccc1)NC(=O)[C@@H](NC(=O)CNC(=O)[C@H](CCC(N)=O)NC(=O)[C@H](C)NC(=O)[C@@H](Cc1ccc(O)cc1)NC(C)=O)[C@@H](C)O)[C@@H](C)O)C(=O)N[C@@H](CO)C(=O)N[C@@H](CCCCN)C(=O)N[C@@H](Cc1ccc(O)cc1)C(=O)N[C@@H](CC(C)C)C(=O)N[C@@H](CC(=O)O)C(=O)N[C@@H](CCC(=O)O)C(=O)N[C@@H](CCCNC(=N)N)C(=O)N[C@@H](C)C(=O)N[C@@H](C)C(=O)N[C@@H](CCC(N)=O)C(=O)N[C@@H](CC(=O)O)C(=O)N[C@@H](Cc1ccccc1)C(=O)N[C@H](C(=O)N[C@@H](CCC(N)=O)C(=O)N[C@@H](Cc1c[nH]c2ccccc12)C(=O)N[C@@H](CC(C)C)C(=O)N[C@@H](CC(C)C)C(=O)N[C@@H](CCC(=O)O)C(=O)NCC(=O)NCC(=O)N1CCC[C@H]1C(=O)N[C@@H](CO)C(=O)N[C@@H](CO)C(=O)NCC(=O)N[C@@H](C)C(=O)N1CCC[C@H]1C(=O)N1CCC[C@H]1C(=O)N1CCC[C@H]1C(=O)N[C@@H](CO)C(N)=O)C(C)C)C(=O)O,"Glucagon receptor (GCGR, Homo sapiens, UniProt P47871)","reporter gene, agonist, luciferase",,,EC50,0.0105 nM
CC(C)C[C@H](NC(=O)[C@H](CO[C@@H]1O[C@H](CO)[C@@H](O[C@@H]2O[C@H](CO)[C@H](O)[C@H](O)[C@H]2O)[C@H](O)[C@H]1O)NC(=O)[C@H](CCCCN)NC(=O)[C@H](CC(C)C)NC(=O)[C@H](C)NC(=O)[C@H](CCCCN)NC(=O)[C@H](CCC(=O)O)NC(=O)CNC(=O)[C@H](CC(C)C)NC(=O)[C@H](CC(N)=O)NC(=O)[C@@H]1CCCN1C(=O)[C@H](CC(C)C)NC(=O)[C@H](Cc1ccccc1)NC(=O)CNC(=O)[C@H](NC(=O)[C@@H](N)Cc1ccc(O)cc1)[C@H](C)O)C(N)=O,OPRK1,"ligand displacement, radioligand",,"pH 7.5, cell membranes",Ki,23 nM
CC[C@H](C)[C@@H]1NC(=O)[C@H](Cc2c[nH]cn2)NC(=O)[C@H]([C@@H](C)CC)NC(=O)[C@H](CO)NC(=O)[C@H](CCCCN)NC(=O)[C@H](CCCNC(=N)N)NC(=O)[C@H]([C@@H](C)O)NC(=O)[C@H](CC(N)=O)NC(=O)[C@H](CC(N)=O)NC(=O)[C@H](CC(N)=O)NC(=O)[C@@H]2CCCN2C(=O)[C@H](CCCNC(=N)N)NC(=O)[C@H]([C@@H](C)O)NC(=O)[C@@H](NC(=O)[C@H](CC(N)=O)NC(=O)[C@@H](NC(=O)[C@H](CCC(=O)O)NC(=O)CCCCCNC(=O)CCCC[C@@H]2SC[C@@H]3NC(=O)N[C@@H]32)[C@@H](C)CC)CSSC[C@@H](C(=O)N[C@@H](CC(=O)N[C@@H]2O[C@H](CO)[C@@H](O[C@@H]3O[C@H](CO)[C@@H](O[C@@H]4O[C@H](CO[C@H]5O[C@H](CO[C@H]6O[C@H](CO)[C@@H](O)[C@H](O)[C@@H]6O[C@H]6O[C@H](CO)[C@@H](O)[C@H](O)[C@@H]6O)[C@@H](O)[C@H](O[C@H]6O[C@H](CO)[C@@H](O)[C@H](O)[C@@H]6O[C@H]6O[C@H](CO)[C@@H](O)[C@H](O)[C@@H]6O)[C@@H]5O)[C@@H](O)[C@H](O[C@H]5O[C@H](CO)[C@@H](O)[C@H](O)[C@@H]5O[C@H]5O[C@H](CO)[C@@H](O)[C@H](O)[C@@H]5O[C@H]5O[C@H](CO)[C@@H](O)[C@H](O)[C@@H]5O)[C@@H]4O)[C@H](O)[C@H]3NC(C)=O)[C@H](O)[C@H]2NC(C)=O)C(=O)N[C@H](C(=O)N[C@@H](CO)C(=O)N[C@@H](CCCNC(=N)N)C(=O)N[C@@H](C)C(=O)N[C@@H](CCCCN)C(=O)N[C@@H](Cc2c[nH]c3ccccc23)C(=O)N[C@@H](CC(N)=O)C(N)=O)[C@@H](C)CC)NC(=O)[C@H](Cc2c[nH]cn2)NC(=O)[C@H](C)NC(=O)[C@H](CCC(N)=O)NC(=O)[C@H](CCCNC(=N)N)NC(=O)[C@H]([C@@H](C)CC)NC(=O)[C@H](CC(=O)O)NC(=O)CNC(=O)[C@H]([C@@H](C)CC)NC(=O)[C@H]([C@@H](C)CC)NC(=O)[C@H](CCC(=O)O)NC(=O)CNC(=O)[C@H]([C@@H](C)O)NC(=O)[C@H]([C@@H](C)O)NC(=O)[C@H](Cc2ccc(O)cc2)NC(=O)[C@H](Cc2ccccc2)NC(=O)[C@H](C)NC(=O)[C@H](CCCNC(=N)N)NC(=O)CNC(=O)[C@@H]2CCCN2C(=O)CNC1=O,PGT128 antibody,SPR,,"pH 7.4, 25 °C",Kd,3650 nM
CC[C@H](C)[C@@H]([C@@H](CC(=O)N1CCC[C@H]1[C@H](OC)[C@@H](C)C(=O)N[C@H](C)[C@@H](O)c1ccccc1)OC)N(C)C(=O)[C@@H](NC(=O)[C@H](C(C)C)N(C)C(=O)OCc1ccc(NC(=O)[C@H](CCCNC(N)=O)NC(=O)[C@@H](NC(=O)CCCC(=O)NCCC(=O)N(C)CC(=O)N(C)CC(=O)N(C)CC(=O)N(C)CC(=O)N(C)CC(=O)N(C)CC(=O)N(C)CC(=O)N(C)CC(=O)N(C)CC(=O)N(C)CC(=O)N[C@H]2CSCCC(=O)N3CN4CN(C3)C(=O)CCSC[C@H](NC(=O)[C@@H](CC(=O)O)NC(=O)[C@H](Cc3cccc5ccccc35)NC(=O)[C@@H]3CCCN3C2=O)C(=O)N[C@@H](CCSC)C(=O)N[C@@H](CCCCNC(=N)N)C(=O)N[C@@H](CC(=O)O)C(=O)N[C@@H](Cc2c[nH]c3ccccc23)C(=O)N[C@@H](CO)C(=O)N[C@@H]([C@@H](C)O)C(=O)N2CCC[C@H]2C(=O)N2C[C@H](O)C[C@H]2C(=O)N[C@@H](Cc2c[nH]c3ccccc23)C(=O)N[C@H](C(N)=O)CSCCC4=O)C(C)C)cc1)C(C)C,"Nectin-4 (Homo sapiens, UniProt Q96NY8)","binding, SPR",,,Kd,2.5 nM
Cc1ccc(C)c(OCCn2cc(C(=O)O)c3ccccc32)c1,"Ras-related C3 botulinum toxin substrate 1 (RAC1, Homo sapiens, UniProt P63000)","GTP binding, flow cytometry bead",,"EDTA buffer, added: 100 nM BODIPY-GTP",EC50,794 nM
CC(C)C[C@H](NC(=O)[C@H](CO[C@@H]1O[C@H](CO)[C@@H](O[C@@H]2O[C@H](CO)[C@H](O)[C@H](O)[C@H]2O)[C@H](O)[C@H]1O)NC(=O)[C@H](CCCCN)NC(=O)[C@H](CC(C)C)NC(=O)CNC(=O)[C@H](CCCCN)NC(=O)[C@H](CCC(=O)O)NC(=O)CNC(=O)[C@H](CC(C)C)NC(=O)[C@H](CC(N)=O)NC(=O)[C@@H]1CCCN1C(=O)[C@H](CC(C)C)NC(=O)[C@H](Cc1ccccc1)NC(=O)CNC(=O)[C@H](NC(=O)[C@@H](N)Cc1ccc(O)cc1)[C@H](C)O)C(N)=O,OPRK1,"ligand displacement, radioligand",,"pH 7.5, cell membranes",Ki,8.4 nM
Cc1cc(O)cc(C)c1C[C@H](N)C(=O)NCC(=O)NCC(=O)N[C@@H](Cc1ccccc1)C(=O)N[C@H](C(=O)NCC(=O)N[C@@H](C)C(=O)N[C@@H](CCCNC(=N)N)C(=O)N[C@@H](CCCCN)C(=O)N[C@@H](CO)C(=O)N[C@@H](C)C(=O)N[C@@H](CCCNC(=N)N)C(=O)N[C@@H](CCCCN)C(N)=O)[C@@H](C)O,"Delta-type opioid receptor (OPRD1, Homo sapiens, UniProt P41143)","GTPγS binding, agonist, radiometric",,cell membranes,EC50,6.76 nM
C[C@H](NC(=O)[C@H](C)NC(=O)[C@@H]1CCCN1C(=O)[C@@H](N)Cc1ccc(O)cc1)C(=O)N[C@@H](CO)C(=O)N[C@@H](Cc1ccc(O)cc1)C(=O)N[C@@H](CCCNC(=N)N)C(=O)O,"Protein Rev (Human immunodeficiency virus type 1 group M subtype B, UniProt P04618)","binding, fluorescence polarization",HIV,added: fluorescein-labelled parent peptide,Kd,217 ± 22 nM
CC(C)C[C@H](NC(=O)[C@H](CO[C@@H]1O[C@H](CO)[C@@H](O)[C@H](O)[C@H]1O)NC(=O)[C@H](CCCCN)NC(=O)[C@H](CC(C)C)NC(=O)C(C)(C)NC(=O)[C@H](CCCCN)NC(=O)[C@H](CCC(=O)O)NC(=O)C(C)(C)NC(=O)[C@H](CC(C)C)NC(=O)[C@H](CC(N)=O)NC(=O)[C@@H]1CCCN1C(=O)[C@H](CC(C)C)NC(=O)[C@H](Cc1ccccc1)NC(=O)CNC(=O)[C@H](NC(=O)[C@@H](N)Cc1ccc(O)cc1)[C@H](C)O)C(N)=O,"Mu-type opioid receptor (OPRM1, Homo sapiens, UniProt P35372)",radioligand displacement,CHO membranes,"60 min, pH 7.5, 25 °C, added: 0.25 nM [3H]DAMGO",Ki,9.1 ± 0.39 nM
CSCC[C@H](NC(=O)[C@H](Cc1ccccc1)NC(=O)CNC(=O)CNC(=O)[C@@H](N)Cc1ccc(O)cc1)C(=O)N[C@H](C(=O)N[C@@H](CO)C(=O)N[C@@H](CCC(=O)O)C(=O)N[C@@H](CCCCN)C(=O)O)[C@@H](C)O,"Delta-type opioid receptor (Oprd1, Rattus norvegicus, UniProt P33533)","cAMP, agonist",,,EC50,~44 nM

# Excerpt of the above:
SMILES,target,test,test system,conditions,endpoint,value
CSCC[C@H](NC(=O)[C@H](Cc1ccccc1)NC(=O)CNC(=O)CNC(=O)[C@@H](N)Cc1ccc(O)cc1)C(=O)N[C@H](C(=O)N[C@@H](CO)C(=O)N[C@@H](CCC(=O)O)C(=O)N[C@@H](CCCCN)C(=O)O)[C@@H](C)O,"Delta-type opioid receptor (Oprd1, Rattus norvegicus, UniProt P33533)","cAMP, agonist",,,EC50,~44 nM
